Published values gathered from unrelated publications.
Protocols differ between the studies behind these lines.
Cell line: HUVEC

For CC(=O)N[C@@H](CCCCN)C(=O)N[C@@H](Cc1c[nH]c2ccccc12)C(=O)N[C@@H](Cc1ccccc1)C(=O)N[C@@H](CCC(=O)O)C(=O)N[C@H](C(=O)N[C@@H](Cc1c[nH]c2ccccc12)C(=O)N[C@@H](Cc1ccccc1)C(=O)N[C@H](C(=O)N[C@@H](CCC(=O)O)C(=O)N[C@@H](Cc1c[nH]c2ccccc12)C(=O)N1CCC[C@H]1C(=O)N[C@@H](CCCCN)C(=O)N[C@@H](CCCCN)C(=O)N[C@@H](CCCNC(=N)N)C(=O)N[C@@H](CCCCN)C(=O)NCCS)[C@@H](C)O)[C@@H](C)O, the IC50 ratio was 15 fold (cyclin B1 protein, western blot; antisense delivery; relative to: Lipofectamine over compound).
CC[C@H](NC(=O)[C@H](Cc1ccccc1)NC(=O)[C@H](CCSC)NC(=O)[C@H](Cc1ccccc1)NC(=O)[C@@H]1CCCN1C(=O)[C@H](CCSC)NC(=O)[C@@H](NC(=O)[C@H](CO)NC(=O)[C@H](Cc1ccccc1)NC(=O)[C@H](CCCNC(=N)N)NC(=O)[C@H](CCCNC(=N)N)NC(=O)[C@@H](N)CC(C)C)[C@@H](C)O)C(=O)N[C@@H](CC(N)=O)C(=O)N[C@H](C(=O)N[C@@H](CC(N)=O)C(=O)N[C@H](C(N)=O)C(C)C)[C@@H](C)CC has a migration inhibition of 18% (real-time impedance; concentration not given).
CNC(=O)c1c(C)oc2cc(Oc3ncnc4cc(OC)c(OCCCCCCC(=O)NO)cc34)ccc12 has a tubule length of 77% (tube formation; 2.5 µM, 72 h; relative to: control).
For COc1cccc(Cn2cc(COc3c(OC)ccc4cc5[n+](cc34)CCc3cc4c(cc3-5)OCO4)nn2)c1, the IC50 was 61.7 µM (cell growth or viability, MTT).
The inhibition of CC(C)(C)c1cc2c(O)c(c1)Cc1cc(C(C)(C)C)cc(c1OCC(=O)NCc1ccccn1)Cc1cc(C(C)(C)C)cc(c1O)Cc1cc(C(C)(C)C)cc(c1OCC(=O)NCc1ccccn1)COC2 is reported as 16% (cell growth or viability, MTT; 15 µM, 72 h).
With COc1ccc2cc3[n+](cc2c1OCc1cn(Cc2ccc(Cl)cc2Cl)nn1)CCc1cc2c(cc1-3)OCO2 the IC50 was 66 µM (cell growth or viability, MTT).
CC[C@H](C)[C@H](NC(=O)CNC(=O)[C@H](CCCCNC(C)=O)NC(=O)[C@H](Cc1ccc(O)cc1)NC(=O)[C@H](C)NC(=O)[C@H](CC(C)C)NC(=O)[C@H](CCC(N)=O)NC(=O)[C@H](Cc1ccc(O)cc1)NC(=O)[C@H](CC(C)C)NC(=O)[C@H](CCC(=O)O)NC(=O)[C@H](CCSC)NC(=O)[C@H](Cc1c[nH]c2ccccc12)NC(=O)[C@@H](NC(=O)[C@H](CC(C)C)NC(=O)[C@H](CCCCNC(=O)CCc1cn(CCOCCOCCOCCOCCOCCOCCOCCOCCNC(=O)CCC(=O)NCc2ccc(CN3C(=O)[C@H]4CC(=O)N[C@@H](CCCNC(=N)N)C(=O)NCC(=O)N[C@@H](CC(=O)O)C(=O)NC[C@H]3C(=O)N4)cc2)nn1)NC(C)=O)[C@@H](C)O)C(N)=O: “capillary network formation” “decreased” (Matrigel tube formation; concentration not given, 5 h, added: VEGF165 10 ng/mL).
The IC10 of Cc1ccc(C(C)C)cc1.O=C(N=P(c1ccccc1)(c1ccccc1)c1ccccc1)c1ccccn1.[Cl-].[Cl][Ru+] is reported as 1.2 µM.
The inhibition of CC(C)(C)c1cc2c(O)c(c1)Cc1cc(C(C)(C)C)cc(c1OCC(=O)Nc1ccncc1)Cc1cc(C(C)(C)C)cc(c1O)Cc1cc(C(C)(C)C)cc(c1OCC(=O)Nc1ccncc1)COC2 is reported as 24% (cell growth or viability, MTT; 15 µM, 72 h).
Under “log2 fold change”, O=Cc1c(O)ccc2ccccc12 is recorded as -4.24 (RNA sequencing, item: PPP1R16B; 75 µM, 24 h; relative to: DMSO).
For COc1ccc2cc3[n+](cc2c1OCc1cn(Cc2c(Cl)cccc2Cl)nn1)CCc1cc2c(cc1-3)OCO2, the IC50 was 20.9 µM (cell growth or viability, MTT).
The inhibition of CC(C)(C)c1cc2c(O)c(c1)Cc1cc(C(C)(C)C)cc(c1OCC(=O)Nc1cncc3ccccc13)Cc1cc(C(C)(C)C)cc(c1O)Cc1cc(C(C)(C)C)cc(c1OCC(=O)Nc1cncc3ccccc13)COC2 is reported as 27% (cell growth or viability, MTT; 15 µM, 72 h).
For COc1ccc2cc3[n+](cc2c1OCc1cn(Cc2ccc(F)cc2Br)nn1)CCc1cc2c(cc1-3)OCO2, the IC50 was 18.8 µM (cell growth or viability, MTT).
CC(C)(C)c1cc2c(O)c(c1)Cc1cc(C(C)(C)C)cc(c1OCC(=O)Nc1ccccn1)Cc1cc(C(C)(C)C)cc(c1O)Cc1cc(C(C)(C)C)cc(c1OCC(=O)Nc1ccccn1)COC2 has an inhibition of 31% (cell growth or viability, MTT; 15 µM, 72 h).
For CC[C@@H](C)[C@H]1NC(=O)[C@@H]([C@H](C)O)NC(=O)[C@@H](Cc2c[nH]cn2)NC(=O)CNC(=O)[C@@H](CCCNC(=N)N)NC(=O)CNC(=O)[C@@H](Cc2ccccc2)NC1=O, “transendothelial electrical resistance” read “no effect” (100 nM, without VEGF).
COc1ccc2cc3[n+](cc2c1OCc1cn(Cc2ccc(Cl)cc2F)nn1)CCc1cc2c(cc1-3)OCO2 gave an IC50 of 54.4 µM (cell growth or viability, MTT).

Excerpt of the above:
The inhibition of CC(C)(C)c1cc2c(O)c(c1)Cc1cc(C(C)(C)C)cc(c1OCC(=O)Nc1ccncc1)Cc1cc(C(C)(C)C)cc(c1O)Cc1cc(C(C)(C)C)cc(c1OCC(=O)Nc1ccncc1)COC2 is reported as 24% (cell growth or viability, MTT; 15 µM, 72 h).
Under “log2 fold change”, O=Cc1c(O)ccc2ccccc12 is recorded as -4.24 (RNA sequencing, item: PPP1R16B; 75 µM, 24 h; relative to: DMSO).
